Results gathered from unrelated publications.
Compare with care: the assays were run in different laboratories. ± marks the error that the study gave.
Fibroin-modulator-binding protein-1: Fibroin-modulator-binding protein-1 99-193 (Bombyx mori, UniProt Q5FBS0)
B1: enzyme (Bilophila wadsworthia, UniProt E5Y8P9); chain MKTVSEQMELARKAQAIVNDYTQEQIDEICLAIGWEVYEDENIAKLAKMAVEETGYGNVQSKIIKHKRKVGGVLHDIKGAKSVGLIERNEETGISKYAKPVGVVCAILPATNPTATCGGKAVGILKGRNAVIFKPSSRALKSTTEAINMMRAGLRKVGAPEDLIQVLEDPSREAITELMKVSDLIVATGSGQVVRAAYSSGTPAYGVGQGNACAIVAEDADVAEAAKMICGSKLFDYATSCSSENAVIPVEAVYDQFMAEMKKNGCYLVTGEDREKLKNHMWKPNAKGKIALNPDIIAKSAQVIADGAGISIPEGTDILLVEGMEPILGDKFHDEKISPVLTVYKAKDFKDAYRILVELTNLVGRGHSCGIHTYKHEYIEFLGEHMKSSRITVRQSMSAGNGGHPFNRMPSTATLGCGTWGGNSTTENVHWRHFINVTWVNEPVAPWTFTDEDMWGDFWKKYGK
B2: nfsB (Escherichia coli, UniProt P38489); chain MDIISVALKRHSTKAFDASKKLTPEQAEQIKTLLQYSPSSTNSQPWHFIVASTEEGKARVAKSAAGNYVFNERKMLDASHVVVFCAKTAMDDVWLKLVVDQEDADGRFATPEAKAANDKGRKFFADMHRKDLHDDAEWMAKQVYLNVGNFLLGVAALGLDAVPIEGFDAAILDAEFGLKEKGYTSLVVVPVGHHSVEDFNATLPKSRLPQNITLTEV
B3: enzyme (Schizosaccharomyces pombe, UniProt P78804); chain MSTPYEPEFQQAYKEIVGSIESSKLFEVHPELKRVLPIISIPERVLEFRVTWEDDKGNCRVNTGYRVQFNSALGPYKGGLRFHPSVNLSILKFLGFEQIFKNALTGLPMGGGKGGSDFDPKGKSDNEIRRFSQAFMRQLFRYIGPQTDVPAGDIGVTGFVVMHMFGEYKRLRNEYSGVVTGKHMLTGGSNIRPEATGYGVVYYVKHMIEHRTKGAETLKGKRVAISGSGNVAQYAALKCIQEGAIVKSISDSKGVLIAKTAEGLVPEEIHEIMALKEKRASIADSASLCKKHHYIAGARPWTNVGEIDIALPCATQNEVSGEEAAALIKQGCRYVAEGSNMGSSAEAVEVFEKSRASGEGCWLAPGKAANAGGVAVSGLEMAQNAQFSTWTHAEVDAKLAGIMQNIFEQSTDVASKYCDSGSNNIPSLVDGANIAGFLKVATAMQAVGDWW
B4: enzyme (Methylibium petroleiphilum, UniProt A2SI32); chain PFAQIYLIEGRTEEQKRAVIEKVTQAMMEAVGAPKENVRVWIHDVPKENWGIGGVSAKALGR
Sequence of UniProt B8H080 (whole entry, looked up): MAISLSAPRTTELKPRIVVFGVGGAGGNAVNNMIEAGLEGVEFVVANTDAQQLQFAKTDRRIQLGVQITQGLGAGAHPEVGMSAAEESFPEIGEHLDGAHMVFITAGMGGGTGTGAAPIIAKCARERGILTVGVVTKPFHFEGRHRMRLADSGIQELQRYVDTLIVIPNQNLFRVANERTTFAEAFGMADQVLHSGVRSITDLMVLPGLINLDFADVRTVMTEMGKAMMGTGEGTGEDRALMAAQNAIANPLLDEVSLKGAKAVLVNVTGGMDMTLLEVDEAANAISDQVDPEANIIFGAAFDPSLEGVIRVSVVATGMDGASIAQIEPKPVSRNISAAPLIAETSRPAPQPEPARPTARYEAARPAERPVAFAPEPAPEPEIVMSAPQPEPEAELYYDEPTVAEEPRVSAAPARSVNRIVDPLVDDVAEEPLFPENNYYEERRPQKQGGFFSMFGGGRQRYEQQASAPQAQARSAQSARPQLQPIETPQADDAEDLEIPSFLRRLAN
Sequence of UniProt Q93UV0 (whole entry, looked up): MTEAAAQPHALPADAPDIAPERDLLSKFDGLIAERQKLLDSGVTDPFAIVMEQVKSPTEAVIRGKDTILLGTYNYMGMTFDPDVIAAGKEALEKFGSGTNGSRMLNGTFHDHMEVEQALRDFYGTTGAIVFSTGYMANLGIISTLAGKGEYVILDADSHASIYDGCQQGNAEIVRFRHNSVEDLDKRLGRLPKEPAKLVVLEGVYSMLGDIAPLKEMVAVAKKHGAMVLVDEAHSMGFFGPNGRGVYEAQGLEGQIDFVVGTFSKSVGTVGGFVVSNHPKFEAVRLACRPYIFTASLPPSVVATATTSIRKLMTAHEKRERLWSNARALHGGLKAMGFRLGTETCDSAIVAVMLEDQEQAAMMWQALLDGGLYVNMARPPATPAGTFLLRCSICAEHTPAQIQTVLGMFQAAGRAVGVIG
Sequence of UniProt Q96C36 (whole entry, unmodified, looked up): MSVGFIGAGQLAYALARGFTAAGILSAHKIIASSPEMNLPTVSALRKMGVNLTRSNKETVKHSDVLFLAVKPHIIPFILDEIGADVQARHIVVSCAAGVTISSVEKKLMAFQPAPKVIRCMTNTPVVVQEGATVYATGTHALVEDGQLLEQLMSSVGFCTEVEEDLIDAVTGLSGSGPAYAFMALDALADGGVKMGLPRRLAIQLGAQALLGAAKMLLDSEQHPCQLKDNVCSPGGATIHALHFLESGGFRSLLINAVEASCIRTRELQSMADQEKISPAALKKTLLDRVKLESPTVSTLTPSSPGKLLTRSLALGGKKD

Molecule	tested on	test	test system	setting	scale	quantity	result
B1 (enzyme)	NC(=O)c1ccc[n+]([C@@H]2O[C@H](COP(=O)(O)OP(=O)(O)OC[C@H]3O[C@@H](n4cnc5c(N)ncnc54)[C@H](OP(=O)(O)O)[C@@H]3O)[C@@H](O)[C@H]2O)c1	steady-state kinetics		pH 9.5, apparent, cofactor varied		Km	680 µM
ACACACACACAC (dsDNA)	Fibroin-modulator-binding protein-1	ITC	double-stranded DNA, one strand shown			Kd	3.88 ± 0.431 µM
ftsZ (Caulobacter crescentus, UniProt B8H080)	Nc1nc2c(ncn2[C@@H]2O[C@H](COP(=O)(O)OP(=O)(O)OP(=O)(O)O)[C@@H](O)[C@H]2O)c(=O)[nH]1	steady-state kinetics				Km	80 µM
CAAGCAAGCAAG (dsDNA)	Fibroin-modulator-binding protein-1	ITC	double-stranded DNA, one strand shown			Kd	5.51 ± 0.943 µM
gdh E198C (Bacillus subtilis)	NC(=O)c1ccc[n+]([C@@H]2O[C@H](COP(=O)(O)OP(=O)(O)OC[C@H]3O[C@@H](n4cnc5c(N)ncnc54)[C@H](O)[C@@H]3O)[C@@H](O)[C@H]2O)c1	steady-state kinetics		pH 8, 45 °C		Km	1320 µM
PYCR2 (Homo sapiens, UniProt Q96C36)	O=C(O)[C@@H]1CCC=N1	steady-state kinetics		pH 7.5, 37 °C, apparent, with: NADH 500 µM		Km	1510 µM
enzyme (Trichoderma guizhouense, UniProt A0A1T3CAM5)	C[C@H](N)C(=O)N[C@@H](C[C@@H]1CCC(=O)[C@@H]2O[C@H]12)C(=O)O	steady-state kinetics		18 °C, not purified		Km	270 µM
B2 (nfsB)	NC(=O)N/N=C/c1ccc([N+](=O)[O-])o1	steady-state kinetics		pH 7, 37 °C, with: NADPH 110 µM		Km	29 µM
human immunoglobulin gamma-1 constant		co-immunoprecipitation	human RBC cytosol	no crosslinker, unit not given, with: Band 3 peptide 1-56 bait	reference: negative control	co-IP enrichment	0
B3 (enzyme)	NC(=O)C1=CN([C@@H]2O[C@H](COP(=O)(O)OP(=O)(O)OC[C@H]3O[C@@H](n4cnc5c(N)ncnc54)[C@H](O)[C@@H]3O)[C@@H](O)[C@H]2O)C=CC1	steady-state kinetics		pH 7, 30 °C, apparent		Km	57000 µM
spt (Sphingomonas paucimobilis, UniProt Q93UV0)	CCCCCCCCCCCCCC(=O)SCCNC(=O)CCNC(=O)[C@H](O)C(C)(C)COP(=O)(O)OP(=O)(O)OC[C@H]1O[C@@H](n2cnc3c(N)ncnc32)[C@H](O)[C@@H]1OP(=O)(O)O	steady-state kinetics		with: PLP		Km	80 µM
triosephosphate isomerase		co-immunoprecipitation	human RBC membrane	unit not given, with: Band 3 peptide 1-56 bait	reference: negative control	co-IP enrichment	0.169
B4 (enzyme)	O=C(O)/C=C/C=C(\O)C(=O)O	steady-state kinetics		pH 7.3, 24 °C		Km	140 µM
